Assay results collected from several papers.
Compare with care: the assays were run in different laboratories. Numbers after ± are the reported error.

Compound | cell line | assay | setting | how to read | measurement | value
O=C(Cn1c(=O)c(Cc2ccccc2)nc2ccccc21)NN1C(=O)c2ccccc2C1=O | HCT-116 | qRT-PCR, refers to: p53 | concentration not given, 72 h | reference: untreated | mRNA level | 3.12 ± 0.078 fold
COc1cc(CNC(=O)C[C@H](C)CCC=C(C)C)ccc1OCc1cn(-c2ccc(Br)cc2)nn1 | SNB-75 CNS cancer cells | SRB | 10 µM, 48 h |  | growth percent | 47.3%
C[C@H](NC(=O)[C@H](Cc1c[nH]c2ccccc12)NC(=O)[C@@H](N)CCCNC(=N)N)C(=O)N[C@@H](Cc1c[nH]c2ccccc12)C(=O)N[C@@H](CCCNC(=N)N)C(=O)N[C@@H](Cc1c[nH]c2ccccc12)C(=O)N[C@@H](CCC(N)=O)C(=O)N[C@@H](Cc1c[nH]c2ccccc12)C(=O)N[C@@H](CCCNC(=N)N)C(N)=O | young human fibroblasts primary | MTT | concentration not given, 24 h, 37 °C, 5% FBS | reference: untreated cells | viability | 91 ± 5%
COc1cc(CNC(=O)C[C@H](C)CCC=C(C)C)ccc1OCc1cn(-c2ccccc2)nn1 | NCI-H522 | SRB | 10 µM, 48 h |  | growth percent | 85.5%
C=C(CC)C(=O)c1ccc(OCC(=O)NCCNC(=O)COc2ccc(C(=O)C(=C)CC)c(Cl)c2Cl)c(Cl)c1Cl | SGC-7901 | cell growth, CCK-8 | 72 h |  | IC10 | ~1200 nM
CC(=O)N[C@H](C(=O)N[C@H](C(=O)N[C@@H](CCCNC(=N)N)C(=O)N1Cc2ccccc2C[C@H]1C(=O)N[C@@H](Cc1ccccc1)C(N)=O)C1CCCCC1)C(C)C | BC-3 T cells | inhibitor, CFSE dilution | concentration not given, 5 days, together with: MBP87-99 |  | T cell proliferation | inhibited
COc1ccc2nc(C)ccc2c1Nc1sn(C)c(=O)c1C#N | mouse DRG neurons |  | up to 10 µM, 22 h |  | NAD+ level | no effect
Cc1nc(C)c(C=[N+]([O-])C(C)(C)C)nc1C | primary rat midbrain neurons | Western blot, refers to: MEF2D | 300 µM, together with: 20 µM MPP+ |  | increase in protein level | 60.5%
COc1cc(CNC(=O)C[C@H](C)CCC=C(C)C)ccc1OCc1cn(-c2ccc([N+](=O)[O-])cc2)nn1 | SNB-75 CNS cancer cells | SRB | 10 µM, 48 h |  | growth percent | 78%
CC(C)Cc1ccc(C(C)C(=O)[O][Pt]([NH2])([NH2])([Cl])([Cl])[O]C(=O)CCCc2ccccc2)cc1 (stereo not drawn) | six human cancer lines | cytotoxicity, MTT |  | reference: oxaliplatin | IC50 fold lower | ~3 fold
Cc1cnc2c(ccc3c(C)c(C)cnc32)c1C.O=C([O-])Cc1ccccc1Nc1c(Cl)cccc1Cl.O=C([O-])Cc1ccccc1Nc1c(Cl)cccc1Cl.[Mn+2] | HMLER-shEcad |  | IC20, 5 d | reference: untreated | decrease in mammosphere number | 51%
CCCCCCCCCCCCCCCOC(=O)/C=C/c1cc(O)c(O)c(OC)c1 | MDA-MB-231 |  | concentration not given, 24 h | reference: untreated | caspase-9 activity | 48 % increase
COc1cc(CNC(=O)C[C@H](C)CCC=C(C)C)ccc1OCc1cn(-c2ccc(C#N)cc2)nn1 | SNB-75 CNS cancer cells | SRB | 10 µM, 48 h |  | growth percent | 54.6%
CC(C)C[C@H](NC(=O)[C@H](CC(C)C)NC(=O)[C@@H](Cc1c[nH]c2ccccc12)NC(=O)[C@H](Cc1ccccc1)NC(=O)[C@@H](Cc1c[nH]c2ccccc12)NC(=O)[C@H](CCC(N)=O)NC(=O)[C@H](CCC(N)=O)NC(=O)[C@@H]1CCCN1C(=O)[C@H](CCCCN)NC(=O)[C@@H]1CCCN1C(=O)[C@H](N)CCCNC(=N)N)C(N)=O | HEK293 expressing NK1R | antagonist, refers to: SRE-SEAP | concentration not given, 30 min, washout 4 h, together with: substance P |  | reporter activity | no effect
Cn1cc(-c2cc(N3CCCCS3(=O)=O)ccc2N[C@H]2CC[C@H](C)CC2)c2cc[nH]c2c1=O (stereo in doubt) | COLO-680N | cell growth or viability, CCK-8 | 72 h |  | GI50 | 4000 nM
N=C(N)NCCC[C@H](NC(=O)[C@H](Cc1c[nH]c2ccccc12)NC(=O)[C@H](CCC(N)=O)NC(=O)[C@H](Cc1c[nH]c2ccccc12)NC(=O)[C@H](CCCNC(=N)N)NC(=O)[C@H](Cc1c[nH]c2ccccc12)NC(=O)[C@H](CCC(N)=O)NC(=O)[C@H](Cc1c[nH]c2ccccc12)NC(=O)[C@@H](N)CCCNC(=N)N)C(N)=O | MDA-MB-468 | MTT | concentration not given, 48 h, 37 °C, 5% FBS | reference: untreated cells | viability | 24 ± 2%
CO[C@H]1O[C@H](COC(c2ccccc2)(c2ccccc2)c2ccccc2)[C@@H](OS(=O)(=O)c2ccccc2)[C@H](OS(=O)(=O)c2ccccc2)[C@H]1OS(=O)(=O)c1ccccc1 | Ehrlich | cell growth or viability, MTT | 125 µg/mL, 24 h |  | inhibition | 5.45%
Cc1cc([C@H](C(=O)N2C[C@H](O)C[C@H]2C(=O)N[C@@H](CC(=O)N2CCC(N3CCC(C#Cc4ccc(C(=O)N[C@H]5C(C)(C)[C@H](Oc6ccc(C#N)c(Cl)c6)C5(C)C)cc4)CC3)CC2)c2ccc(-c3scnc3C)cc2)C(C)C)on1 | HCC1428 | flow cytometry | 72 h |  | apoptosis-inducing concentration | 0.25 µM
CCOC(=O)C(Cc1cccc(O)c1)OC(=O)C=Cc1ccc(O)c(O)c1C=Cc1ccc(O)c(O)c1 (stereo not drawn) | human vascular smooth muscle cells |  | 10 µM |  | transgelin-actin co-localization | 83%
C=CC(OC(C)=O)c1cc(OC)c(OC(C)=O)c(OC)c1 (stereo not drawn) | MDA-MB-231 | cell growth or viability, MTT |  |  | IC20 | 12000 nM
COC1CN([C@H]2CC[C@H]([C@@]3(C)Oc4c(Cl)cc(C(=O)NCc5c(SC)cc(C)[nH]c5=O)c(C)c4O3)CC2)C1 | KARPAS-422 | cell growth or viability |  |  | GI50 | 6 nM
O=C(N1CCCC1)n1cc(-c2ccc(-c3ccccc3)cc2)nn1 | mouse T-cells | N-terminal labeled proteins, N-terminal enrichment proteomics, refers to: UQCRH | 1 nM, 6 h | reference: DMSO | SILAC ratio | 1.22 ± 0.17
CC1OC(Oc2c(-c3ccc(O)cc3)oc3cc(O)cc(O)c3c2=O)C(OC(=O)C=Cc2ccc(O)cc2)C(O)C1OC(=O)C=Cc1ccc(O)cc1 (stereo not drawn) | mouse bone marrow macrophages | qRT-PCR | 5 µM, 24 h, outcome increased |  | M1 gene expression | increased
COc1ccc([C@@H]2CC(=O)c3c(O)cc(O[C@@H]4O[C@H](CO[C@@H]5O[C@@H](C)[C@H](O)[C@@H](O)[C@H]5O)[C@@H](O)[C@H](O)[C@H]4O)cc3O2)cc1O | MRC5 | trypan blue exclusion | 50 µg/mL, 24 h |  | cell count | 12900 ± 498
CCC(=C(c1ccc(Cl)cc1)c1ccc(OCCCN(C)C)cc1)c1ccc(OC)cc1 | Malme-3M | cell growth or viability, SRB |  |  | GI50 | 1200 nM
C(=C/c1ccccc1)/c1ccccc1 | U-937 | cell proliferation, CellTiter-Glo | 24 h, lowest dose with significant inhibition | reference: vehicle | lowest effective concentration | 2 µM

Compound | cell line | assay | setting | how to read | measurement | value
O=C(Cn1c(=O)c(Cc2ccccc2)nc2ccccc21)OCCNCCO | HCT-116 | qRT-PCR, refers to: p53 | concentration not given, 72 h | reference: untreated | mRNA level | 5.312 ± 0.012 fold
CCC[C@@H]1O[C@@H](Oc2c(-c3ccc(O)cc3)oc3cc(O)cc(O)c3c2=O)[C@H](OC(C)=O)[C@H](OC(C)=O)[C@H]1NC(C)=O | MCF-10A | cell growth or viability | 50 µM |  | inhibition | 70%
COc1cc(CNC(=O)C[C@H](C)CCC=C(C)C)ccc1OCc1cn(-c2ccccc2F)nn1 | SK-MEL-28 melanoma cells | SRB | 10 µM, 48 h |  | growth percent | 94.9%
COc1cc(C(=O)c2[nH]c(N)nc2-c2cccs2)cc(OC)c1OC | HeLa or A549 cells | γ-tubulin immunofluorescence | 200 nM |  | multipolar mitotic spindles | 58%
CCCC(CCC)C(=O)[O][Pt]([NH2])([NH2])([Cl])([Cl])[O]C(=O)C(C)c1ccc(CC(C)C)cc1 (stereo not drawn) | six human cancer lines | cytotoxicity, MTT |  | reference: oxaliplatin | IC50 fold lower | ~3 fold
Cc1c(C)c(C)[c-](C)c1C.[C-]#[O+].[C-]#[O+].[C-]#[O+].[Cl-].[Cl-].[Cl-].[Ir+3].[Re+].c1cnc(-c2ncccn2)nc1 | MDA-MB-468 | JC-1 flow cytometry | 10 µM |  | cells with depolarised mitochondria | 28.9%
O=Cc1c(O)ccc2ccccc12 | HUVEC | RNA sequencing, refers to: STC1 | 75 µM, 24 h | reference: DMSO | log2 fold change | 3.12
COc1ccc([C@@H]2CC(=O)c3c(O)cc(O[C@@H]4O[C@H](CO[C@@H]5O[C@@H](C)[C@H](O)[C@@H](O)[C@H]5O)[C@@H](O[C@H]5O[C@H](CO)[C@@H](O)[C@H](O)[C@H]5O)[C@H](O)[C@H]4O)cc3O2)cc1O | A549 | cell migration, scratch | 100 µg/mL, 48 h |  | gap closure | 5.25 ± 0.2%
COc1cc2c(cc1C)NC(=O)C2=Cc1c(Cl)[nH]c2c1ccc1ccccc12 | CNS cancer subpanel of NCI-60 |  | 48 h |  | TGI | 3390 nM
COc1cc(/C=C/c2cc(C)n[nH]2)ccc1O | CHO |  | 2.5 µM, 2 h pretreatment, read 18 h post-irradiation, together with: 4 Gy radiation | reference: irradiated control | reduction in micronuclei | ~25%
Cc1ccc(C(C)C)cc1.[Cl-].[Cl][Ru+].[Ru+].c1ccc(-c2cn(CCCCOc3ccccc3-c3nc4ccccc4s3)nn2)nc1 | MCF7 | MTT |  | reference: IC50 HEK293 over IC50 MCF7 | selectivity ratio | 10.9
COc1cc(CNC(=O)C[C@H](C)CCC=C(C)C)ccc1OCc1cn(-c2ccccc2Cl)nn1 | UO-31 | SRB | 10 µM, 48 h |  | growth percent | 30.3%
CS(C)=O.CS(C)=O.[Cl][Cu][Cl].c1ccc(-c2nnc(-c3ccc4c(c3)OCO4)[nH]2)nc1 | T24 | PI flow cytometry | 5.3 µM, 24 h |  | cells in G0/G1 phase | 36.5%
CC(=O)OC[C@H]1O[C@@H](Sc2sc(C(=O)c3ccc(C)cc3)c(N)c2-c2nc3ccccc3s2)[C@H](OC(C)=O)[C@@H](OC(C)=O)[C@H]1OC(C)=O | NCI/ADR-RES | SRB | 10 µM, 48 h |  | growth | 82%
CC(C)c1cnn2c(NCc3ccccc3)cc(N[C@@H](CO)[C@H](O)CO)nc12 | MCF7/MX (ABCG2-overexpressing) | cell growth, sulforhodamine B |  | reference: MCF7/MX over parental MCF7 | GI50 ratio | > 2
C=C[C@H](OC(C)=O)c1ccc(OC(C)=O)cc1 | MDA-MB-231 | Western blot | concentration not given, 24 h |  | integrin beta1 decrease | 15.5%
COc1cc(CNC(=O)C[C@H](C)CCC=C(C)C)ccc1OCc1cn(-c2cccc([N+](=O)[O-])c2)nn1 | SK-MEL-28 melanoma cells | SRB | 10 µM, 48 h |  | growth percent | 98.5%
CCn1nc2c(c1Nc1nc(-c3ccc(-n4cnc(C)c4)c(OC)n3)cs1)CCCC2 | SH-SY5Y-APP | ELISA |  | reference: Aβ40 IC50 over Aβ42 IC50 | selectivity ratio | > 3 fold
FC(F)(F)c1ccnc(-c2cc(C(F)(F)F)ccn2)c1.FC(F)(F)c1ccnc(-c2cc(C(F)(F)F)ccn2)c1.[Cl-].[Cl-].[Ru+2].c1csc(-c2ccc(-c3ccc(-c4nc5c6cccnc6c6ncccc6c5[nH]4)s3)s2)c1 | SK-MEL-28 | cell viability | hypoxia, together with: green light 523 nm | reference: dark EC50 over light EC50 | phototherapeutic index | 180
C=C(C)[C@@H]1CC[C@]2(C(=O)OCO/N=[N+](\[O-])N3CCCC3)CC[C@]3(C)[C@H](CC[C@@H]4[C@@]5(C)CC[C@H](OC(C)=O)C(C)(C)[C@@H]5CC[C@]43C)[C@@H]12 | B16-F10 | PI flow cytometry | 1.0 µM |  | cells in S phase | 43.1%
C=CC(=O)N1CCCC(n2c(=O)c3ncccc3n(Cc3ccc(Oc4ccccc4)cc3)c2=O)C1 (stereo not drawn) | RPMI-8226 carfilzomib-resistant | cell proliferation, MTT |  | reference: resistant over parental | sensitivity ratio | 4 fold
COc1cc([C@@H]2c3cc4c(cc3[C@@H](OCc3cc(-c5cc(C#N)cc(C#N)c5)no3)[C@H]3COC(=O)C23)OCO4)cc(OC)c1OC (stereo partly drawn) | MIA PaCa-2 | cell growth or viability, SRB | 48 h |  | GI50 | 1030 nM
Cc1ccc(-n2nnnc2[S+]([O-])Cc2c(F)cccc2Cl)cc1Cl (stereo not drawn) | Ramos | LFQ mass spectrometry | 10 µM, 8 h |  | downregulated proteins | 1710 count
COc1cc(CNC(=O)C[C@H](C)CCC=C(C)C)ccc1O | SNB-75 CNS cancer cells | SRB | 10 µM, 48 h |  | growth percent | 56.8%
COc1ccc2c(-c3ccc(O)c(C)c3)ccnc2c1 | PBMC from rheumatoid arthritis patients |  | concentration not given |  | TNF-α level | decreased
